Measurements collected from several papers.
Compare with care: the assays were run in different laboratories.
T1: NEMO 50-113 T50E/L55R/R75V/C76S/E78R/C95A/R106E/E110V; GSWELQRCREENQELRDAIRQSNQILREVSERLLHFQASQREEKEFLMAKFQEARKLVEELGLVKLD
B1: NOTCH4 276-511 (Homo sapiens, UniProt Q99466); sequence looked up; chain NPDNCVSHQCQNGGTCQDGLDTYTCLCPETWTGWDCSEDVDECETQGPPHCRNGGTCQNSAGSFHCVCVSGWGGTSCEENLDDCIAATCAPGSTCIDRVGSFSCLCPPGRTGLLCHLEDMCLSQPCHGDAQCSTNPLTGSTLCLCQPGYSGPTCHQDLDECLMAQQGPSPCEHGGSCLNTPGSFNCLCPPGYTGSRCEADHNECLSQPCHPGSTCLDLLATFHCLCPPGLEGQLCE
B2: TIM10 8-93 (Saccharomyces cerevisiae, UniProt P87108); sequence looked up; chain GGQPQLSSQQKIQAAEAELDLVTDMFNKLVNNCYKKCINTSYSEGELNKNESSCLDRCVAKYFETNVQVGENMQKMGQSFNAAGKF
B3: MED15 residues 7-659 (Saccharomyces cerevisiae); chain GSQDKDTLSNAERAKNVNGLLQVLMDINTLNGGSSDTADKIRIHAKNFEAALFAKSSSKKEYMDSMNEKVAVMRNTYNTRKNAVTAAAANNNIKPVEQHHINNLKNSGNSANNMNVNMNLNPQMFLNQQAQARQQVAQQLRNQQQQQQQQQQQQRRQLTPQQQQLVNQMKVAPIPKQLLQRIPNIPPNINTWQQVTALAQQKLLTPQDMEAAKEVYKIHQQLLFKARLQQQQAQAQAQANNNNNGLPQNGNINNNINIPQQQQMQPPNSSANNNPLQQQSSQNTVPNVLNQINQIFSPEEQRSLLQEAIETCKNFEKTQLGSTMTEPVKQSFIRKYINQKALRKIQALRDVKNNNNANNNGSNLQRAQNVPMNIIQQQQQQNTNNNDTIATSATPNAAAFSQQQNASSKLYQMQQQQQAQAQAQAQAQAQAQAQAQAQAAQAAQAQAQAQAQAQAQAQAQAQAQAQAQAQAQAQAQAHAQHQPSQQPQQAQQQPNPLHGLTPTAKDVEVIKQLSLDASKTNLRLTDVTNSLSNEEKEKIKMKLKQGQKLFVQVSNFAPQVYIITKNENFLKEVFQLRIFVKEILEKCAEGIFVVKLDTVDRLIIKYQKYWESMRIQILRRQAILRQQQQMANNNGNPGTTSTGNNNNIATQQNMQ
B4: TOMM20 cytosolic domain, 62-127 (Homo sapiens, UniProt Q15388); N-terminal cysteine ATTO550 label; chain CDAEAVQKFFLEEIQLGEELLAQGEYEKGVDHLTNAIAVCGQPQQLLQVLQQTLPPPVFQMLLTKLP
B5: TFC6 1-672 (Saccharomyces cerevisiae, UniProt Q06339); chain MAVIPAKKRGRPRKSVVAEVPYDSLASPVSENSGSKRPRRNASKKAVANFAQLVHAGRDDVINTTQVNNVDDTDDDDFVLNDEGDGEESDNVEIEFENELESTKNEVADLNSSGSGASVRPSGRRNTVQKLRLKKNSTKNMKSSSPGSSLGQKGRPIRLLKDLSSARDKIERIYGLNKEKLLLLAKVKEGFETSVFDFPFKNIQPDSPYFVCLDPPCKKESAYNKVIGDKNRTVYHEINKTEFENMIKLRTKRLKLLIGEVDAEVSTGDKIEFPVLANGKRRGFIYNVGGLVTDIAWLNIEENTDIGKDIQYLAVAVSQYMDEPLNEHLEMFDKEKHSSCIQIFKMNTSTLHCVKVQTIVHSFGEVWDLKWHEGCHAPHLVGCLSFVSQEGTINFLEIIDNATDVHVFKMCEKPSLTLSLADSLITTFDFLSPTTVVCGFKNGFVAEFDLTDPEVPSFYDQVHDSYILSVSTAYSDFEDTVVSTVAVDGYFYIFNPKDIATTKTTVSRFRGSNLVPVVYCPQIYSYIYSDGASSLRAVPSRAAFAVHPLVSRETTITAIGVSRLHPMVLAGSADGSLIITNAARRLLHGIKNSSATQKSLRLWKWDYSIKDDKYRIDSSYEVYPLTVNDVSKAKIDAHGINITCTKWNETSAGGKCYAFSNSAGLLTLEYLS
B6: ATG9 1-100 (Saccharomyces cerevisiae, UniProt Q12142); sequence looked up; chain MERDEYQLPNSHGKNTFLSRIFGLQSDEVNPSLNSQEMSNFPLPDIERGSSLLHSTNDSREDVDENDLRVPESDQGTSTEEEDEVDEEQVQAYAPQISDG
B7: Rai14 1-400 (Mus musculus, UniProt Q9EP71); sequence looked up; chain MKSLKAKFRKSDTNEWNKNDDRLLQAVENGDAEKVASLLGKKGASATKHDSEGKTAFHLAAAKGHVECLKVMVTHGVDVTAQDSSGHSALHVAAKNGHPECIRKLLQYKSPAENIDNSGKTALHYAAAQGCLQAVQLLCEHKSPINLKDLDGNIPLLVAVQNGHSEACHFLLDHGADVNSRDKNGRTALMLACETGSSNTVDALIKKGADLSLVDSLGHNALHYSKLSENAGIQNLLLSKISQDADLKTPTKPKQHDQVSKISSERSGTPKKRKAPPPPISPTQLSDVSSPRSITSTPLSGKESVFFAEAPFKAEISSIQENKDRLSDSTAGADSLLDISSEADQQDLLVLLQAKVASLTLHNKELQDKLQAKSPKDKEAEADLSFQSFHSTQTDLAPSP
B8: NUP60 200-318 (Saccharomyces cerevisiae, UniProt P39705); sequence looked up; chain SMNTTLGSIGSRKYSFNYSSLPSPYKTTVYRYSAAKKIPDTYTANTSAQSIASAKSVRSGVSKSAPSKKISNTAAALVSLLDENDSKKNNAASELANPYSSYVSQIRKHKRVSPNAAPR
B9: CCDC32 L78A/L81A/K83A/K84A (Mus musculus, UniProt Q8BS39); chain MKMFESLDSSATKSGRDLWAEICSCLPSPAQEDVSDNAFSDSFMDSHPAGESHTAAADSAVQPAGKPWAPLHDSEVYAASAEAALRRIKGLNEEVTSKDMLRTLAQAKKECWDRFLQEKLASEFFVDGLDSDERTLEHFKRWLQPDKVAISTEEVQFLIPPESQAEKPEAGDKPAAAEQ
B10: ND4 1-486 (Yarrowia lipolytica, UniProt Q9B6D6); sequence looked up; chain MFLTSILLSSLYLFNRILAWQGNVKHFYLFASNLLLLFIVVLYINFNTFSNSFQFNFELFNSLNPFGLSNSDISNGLLFGIDGLSLTFILLTVLLIPLTLLGNWYNINFNSNLYYTLVLAIGLVILLNFWALDYISFYILFEATLPLLFILIHIYGSSDSERASFYVLMFTLSGSLFMLLSIVVISIVLNTTNFINHNLFVLSLDLQTIIWLGLFIAIMVKTPLFPIHVWLPVVHSESPLAGSMILAGLILKLALYAILRLLLPLLCEAQILYTPMIYIISLLTIILTSLATLRQIDLKVIIAYSSISHMGIAILGVCSNTSLGIYGSIVLGVAHGFVSPALFLIVGGILYDRYHIRIVNYYKGLTTYMPQLATYIIILSFANIGTPLTGNFTGEFLSLQGGFIRNPIIGGISCISVLLAAIYQLKLTNKLTGGISSIYMHRTNDVTIREKFIMNILIISTLIIGICPQIMYNLLYWTVNNYIYII
B11: PduA 2-94 (Salmonella enterica, UniProt P0A1C7); chain QQEALGMVETKGLTAAIEAADAMVKSANVMLVGYEKIGSGLVTVIVRGDVGAVKAATDAGAAAARNVGEVKAVHVIPRPHTDVEKILPKGISQ
B12: AGRN 1329-2068 N1993R (Homo sapiens, UniProt O00468); sequence looked up; chain PPKPCDSQPCFHGGTCQDWALGGGFTCSCPAGRGGAVCEKVLGAPVPAFEGRSFLAFPTLRAYHTLRLALEFRALEPQGLLLYNGNARGKDFLALALLDGRVQLRFDTGSGPAVLTSAVPVEPGQWHRLELSRHWRRGTLSVDGETPVLGESPSGTDGLNLDTDLFVGGVPEDQAAVALERTFVGAGLRGCIRLLDVNNQRLELGIGPGAATRGSGVGECGDHPCLPNPCHGGAPCQNLEAGRFHCQCPPGRVGPTCADEKSPCQPNPCHGAAPCRVLPEGGAQCECPLGREGTFCQTASGQDGSGPFLADFNGFSHLELRGLHTFARDLGEKMALEVVFLARGPSGLLLYNGQKTDGKGDFVSLALRDRRLEFRYDLGKGAAVIRSREPVTLGAWTRVSLERNGRKGALRVGDGPRVLGESPKSRKVPHTVLNLKEPLYVGGAPDFSKLARAAAVSSGFDGAIQLVSLGGRQLLTPEHVLRQVDVTSFAGHPCTRASGHPCLNGASCVPREAAYVCLCPGGFSGPHCEKGLVEKSAGDVDTLAFDGRTFVEYLNAVTESELANEIPVEKALQSNHFELSLRTEATQGLVLWSGKATERADYVALAIVDGHLQLSYNLGSQPVVLRSTVPVNTNRWLRVVAHREQREGSLQVGREAPVTGSSPLGATQLDTDGALWLGGLPELPVGPALPKAYGTGFVGCLRDVVVGRHPLHLLEDAVTKPELRPCPTP
Chain of UniProt P37958 (whole entry, looked up): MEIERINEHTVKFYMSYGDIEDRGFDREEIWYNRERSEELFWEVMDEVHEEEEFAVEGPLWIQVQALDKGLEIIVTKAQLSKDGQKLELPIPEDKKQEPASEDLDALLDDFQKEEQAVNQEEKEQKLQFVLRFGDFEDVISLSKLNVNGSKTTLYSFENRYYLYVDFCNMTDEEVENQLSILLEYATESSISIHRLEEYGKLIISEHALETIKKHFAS
Chain of UniProt O75096 (whole entry, unmodified, looked up): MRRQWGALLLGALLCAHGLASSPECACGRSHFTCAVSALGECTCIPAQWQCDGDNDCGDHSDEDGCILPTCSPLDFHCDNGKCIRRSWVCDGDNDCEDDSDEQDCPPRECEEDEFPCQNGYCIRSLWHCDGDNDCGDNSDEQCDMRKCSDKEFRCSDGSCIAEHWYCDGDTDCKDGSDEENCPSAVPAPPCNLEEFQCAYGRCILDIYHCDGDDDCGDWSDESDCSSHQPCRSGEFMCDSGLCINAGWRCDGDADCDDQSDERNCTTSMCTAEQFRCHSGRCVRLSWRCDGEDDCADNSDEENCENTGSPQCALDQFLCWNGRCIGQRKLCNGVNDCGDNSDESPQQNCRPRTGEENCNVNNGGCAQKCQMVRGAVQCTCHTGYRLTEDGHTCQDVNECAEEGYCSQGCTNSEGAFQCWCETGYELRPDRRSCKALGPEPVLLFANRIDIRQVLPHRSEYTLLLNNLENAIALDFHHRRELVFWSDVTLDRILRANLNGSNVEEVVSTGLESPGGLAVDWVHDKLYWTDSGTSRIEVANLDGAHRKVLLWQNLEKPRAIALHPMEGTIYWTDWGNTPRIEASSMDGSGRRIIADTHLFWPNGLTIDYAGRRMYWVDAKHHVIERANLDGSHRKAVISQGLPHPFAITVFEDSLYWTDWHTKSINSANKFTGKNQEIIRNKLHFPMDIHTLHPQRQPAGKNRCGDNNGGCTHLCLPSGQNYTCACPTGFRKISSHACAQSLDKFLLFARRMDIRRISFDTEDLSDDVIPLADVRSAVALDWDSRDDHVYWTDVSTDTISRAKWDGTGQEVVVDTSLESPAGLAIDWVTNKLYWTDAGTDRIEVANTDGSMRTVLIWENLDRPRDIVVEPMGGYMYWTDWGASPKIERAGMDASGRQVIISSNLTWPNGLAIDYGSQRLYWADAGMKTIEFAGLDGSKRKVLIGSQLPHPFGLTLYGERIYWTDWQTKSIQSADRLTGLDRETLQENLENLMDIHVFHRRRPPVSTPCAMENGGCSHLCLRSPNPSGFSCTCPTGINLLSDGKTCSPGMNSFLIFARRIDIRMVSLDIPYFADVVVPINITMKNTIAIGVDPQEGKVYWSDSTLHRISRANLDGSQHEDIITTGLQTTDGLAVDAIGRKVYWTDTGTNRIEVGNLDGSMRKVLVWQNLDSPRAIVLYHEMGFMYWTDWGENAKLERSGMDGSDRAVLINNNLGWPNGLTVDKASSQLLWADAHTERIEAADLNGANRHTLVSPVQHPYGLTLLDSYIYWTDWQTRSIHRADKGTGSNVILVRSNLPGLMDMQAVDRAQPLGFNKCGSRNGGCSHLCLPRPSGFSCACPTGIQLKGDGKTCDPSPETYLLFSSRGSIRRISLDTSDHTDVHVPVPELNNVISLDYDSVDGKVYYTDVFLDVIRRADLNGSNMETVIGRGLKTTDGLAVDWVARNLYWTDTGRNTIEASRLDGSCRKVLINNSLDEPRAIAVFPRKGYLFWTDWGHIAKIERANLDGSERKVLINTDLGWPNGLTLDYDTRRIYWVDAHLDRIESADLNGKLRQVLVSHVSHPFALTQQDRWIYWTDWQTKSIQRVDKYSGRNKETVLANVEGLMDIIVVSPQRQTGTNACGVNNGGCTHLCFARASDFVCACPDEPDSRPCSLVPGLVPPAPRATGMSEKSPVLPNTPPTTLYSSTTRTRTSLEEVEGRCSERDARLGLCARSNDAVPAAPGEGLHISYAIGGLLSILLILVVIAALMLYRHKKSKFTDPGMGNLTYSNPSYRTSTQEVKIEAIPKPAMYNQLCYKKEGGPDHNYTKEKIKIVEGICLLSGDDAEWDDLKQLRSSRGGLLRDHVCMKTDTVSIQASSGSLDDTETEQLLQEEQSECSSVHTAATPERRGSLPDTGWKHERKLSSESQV
Chain of UniProt Q9B6D3 (whole entry, looked up): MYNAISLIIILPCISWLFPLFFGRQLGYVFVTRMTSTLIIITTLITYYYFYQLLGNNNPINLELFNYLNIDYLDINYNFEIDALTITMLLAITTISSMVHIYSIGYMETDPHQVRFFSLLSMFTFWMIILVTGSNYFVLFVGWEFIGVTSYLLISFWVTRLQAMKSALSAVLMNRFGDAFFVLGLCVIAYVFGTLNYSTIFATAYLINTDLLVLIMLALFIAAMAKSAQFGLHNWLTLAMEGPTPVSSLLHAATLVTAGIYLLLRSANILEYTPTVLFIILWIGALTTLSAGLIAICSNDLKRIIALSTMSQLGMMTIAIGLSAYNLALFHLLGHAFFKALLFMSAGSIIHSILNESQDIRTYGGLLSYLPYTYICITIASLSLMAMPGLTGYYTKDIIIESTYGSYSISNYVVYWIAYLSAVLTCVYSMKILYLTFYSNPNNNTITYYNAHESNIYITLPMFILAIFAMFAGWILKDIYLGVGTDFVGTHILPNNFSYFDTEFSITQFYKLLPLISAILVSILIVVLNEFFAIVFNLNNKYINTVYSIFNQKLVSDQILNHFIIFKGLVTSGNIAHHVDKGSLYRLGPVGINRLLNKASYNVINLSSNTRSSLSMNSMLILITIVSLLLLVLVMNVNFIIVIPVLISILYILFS
Chain of UniProt P34111 (whole entry, looked up): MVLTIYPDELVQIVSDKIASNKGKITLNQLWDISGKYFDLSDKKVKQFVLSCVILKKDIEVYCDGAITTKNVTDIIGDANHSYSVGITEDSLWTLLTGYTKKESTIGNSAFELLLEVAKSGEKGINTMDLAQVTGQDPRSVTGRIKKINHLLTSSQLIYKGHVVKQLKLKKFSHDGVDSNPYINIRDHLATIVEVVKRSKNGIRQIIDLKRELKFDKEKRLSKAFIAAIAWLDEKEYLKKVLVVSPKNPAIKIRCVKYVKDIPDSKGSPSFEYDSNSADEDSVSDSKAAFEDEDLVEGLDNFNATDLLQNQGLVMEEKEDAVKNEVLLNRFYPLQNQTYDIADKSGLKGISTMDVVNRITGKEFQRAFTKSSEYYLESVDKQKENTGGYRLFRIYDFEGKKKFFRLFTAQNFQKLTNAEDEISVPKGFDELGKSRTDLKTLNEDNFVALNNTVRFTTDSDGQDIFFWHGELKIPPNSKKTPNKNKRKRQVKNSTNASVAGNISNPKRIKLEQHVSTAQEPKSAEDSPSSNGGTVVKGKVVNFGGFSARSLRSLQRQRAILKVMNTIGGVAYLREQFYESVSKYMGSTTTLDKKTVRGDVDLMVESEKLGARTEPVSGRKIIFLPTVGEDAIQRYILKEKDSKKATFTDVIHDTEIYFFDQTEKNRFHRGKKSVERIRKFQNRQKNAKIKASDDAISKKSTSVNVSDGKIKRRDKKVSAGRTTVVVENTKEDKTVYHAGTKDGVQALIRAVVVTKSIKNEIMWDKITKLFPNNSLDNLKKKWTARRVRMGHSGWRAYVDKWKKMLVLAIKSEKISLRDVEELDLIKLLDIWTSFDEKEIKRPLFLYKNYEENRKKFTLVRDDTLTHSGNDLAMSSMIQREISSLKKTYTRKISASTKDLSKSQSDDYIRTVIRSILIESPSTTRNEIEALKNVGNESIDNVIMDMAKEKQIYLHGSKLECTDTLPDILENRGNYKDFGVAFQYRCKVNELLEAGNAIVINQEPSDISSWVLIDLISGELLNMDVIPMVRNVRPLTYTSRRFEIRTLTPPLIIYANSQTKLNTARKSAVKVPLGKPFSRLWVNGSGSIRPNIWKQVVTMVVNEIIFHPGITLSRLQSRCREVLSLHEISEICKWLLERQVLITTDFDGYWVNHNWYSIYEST
Chain of UniProt O74700 (whole entry, looked up): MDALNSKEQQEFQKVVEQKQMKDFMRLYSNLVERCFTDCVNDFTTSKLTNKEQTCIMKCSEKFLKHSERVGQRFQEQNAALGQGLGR
Chain of UniProt Q06671 (whole entry, looked up): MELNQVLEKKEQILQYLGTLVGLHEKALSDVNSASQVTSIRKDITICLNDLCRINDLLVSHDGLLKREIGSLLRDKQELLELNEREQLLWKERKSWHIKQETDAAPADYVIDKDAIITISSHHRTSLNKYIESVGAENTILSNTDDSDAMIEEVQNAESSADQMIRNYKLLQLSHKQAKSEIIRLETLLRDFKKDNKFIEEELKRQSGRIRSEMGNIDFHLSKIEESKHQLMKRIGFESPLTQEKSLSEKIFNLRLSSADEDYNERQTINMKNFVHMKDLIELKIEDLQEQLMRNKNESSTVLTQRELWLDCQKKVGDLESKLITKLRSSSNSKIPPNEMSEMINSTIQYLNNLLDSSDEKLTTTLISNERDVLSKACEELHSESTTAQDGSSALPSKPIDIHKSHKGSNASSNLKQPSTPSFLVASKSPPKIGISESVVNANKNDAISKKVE
Chain of UniProt Q9Z0W5 (whole entry, looked up): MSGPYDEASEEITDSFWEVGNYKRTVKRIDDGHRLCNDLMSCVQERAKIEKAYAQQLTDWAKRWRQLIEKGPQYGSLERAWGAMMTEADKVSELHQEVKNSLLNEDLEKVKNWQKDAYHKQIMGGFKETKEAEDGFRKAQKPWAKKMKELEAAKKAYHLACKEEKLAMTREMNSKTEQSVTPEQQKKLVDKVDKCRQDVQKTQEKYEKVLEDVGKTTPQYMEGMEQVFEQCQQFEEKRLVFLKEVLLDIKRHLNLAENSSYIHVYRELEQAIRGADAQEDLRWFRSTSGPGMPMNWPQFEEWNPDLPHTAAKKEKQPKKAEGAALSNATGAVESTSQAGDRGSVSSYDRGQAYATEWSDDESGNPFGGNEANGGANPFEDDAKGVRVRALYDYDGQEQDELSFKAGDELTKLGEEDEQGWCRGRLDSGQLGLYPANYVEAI

Molecule = B1 (NOTCH4 276-511); target or system = DLL4 27-400 (Homo sapiens, UniProt Q9NR61); test = SPR; endpoint = binding; result = binds
Molecule = B2 (TIM10 8-93); target or system = TIM9 1-87 (Saccharomyces cerevisiae, UniProt O74700); test = SEC; endpoint = binding; result = binds
Molecule = B3 (MED15 residues 7-659); target or system = Gcn4 fragment C262S (Saccharomyces cerevisiae); test = fluorescence polarisation; endpoint = binding; result = binds
Molecule = B4; target or system = Fem1b N26E (Mus musculus, UniProt Q9Z2G0); test = fluorescence polarisation; endpoint = binding; result = binds
Molecule = TKQTARKSTGGKA (H3 peptide residues 3-x 4-16 (UniProt P68431); K9me3); target or system = CBX7 8-62 D50C/R52D (Homo sapiens, UniProt O95931); test = array; test system = peptide; endpoint = binding; result = binds
Molecule = GVGGSWGVFSSGESPAIVPDK (TET3 peptide 1451-1471 (Homo sapiens, UniProt O43151); sequence looked up); target or system = KMT2D 1503-1562 (Homo sapiens, UniProt O14686); test = NMR titration; test system = peptide; endpoint = binding; result = binds
Molecule = B5 (TFC6 1-672); target or system = TFC3 1-1160 (Saccharomyces cerevisiae, UniProt P34111); test = cryo-EM; endpoint = binding; result = binds
Molecule = B6 (ATG9 1-100); target or system = Atg23 full-length, dimer (yeast, UniProt Q06671); test = pull-down; conditions = 5 µM, 15 min, pH 8, 4 °C, NaCl 150 mM; endpoint = binding; result = binds
Molecule = KESALRKQDLWLLFDPLLR (TACC3 to 568 550-568 S558D/Y560W/K562L (Homo sapiens, UniProt Q9Y6A5); sequence looked up); target or system = CLTC 358-574 (Homo sapiens, UniProt Q00610); test = peptide array; test system = peptide; endpoint = binding; result = binds
Molecule = ATQISDLSKRKPKTEDFLTFLCLRGSPALP (JARID2 141-170 (Homo sapiens, UniProt Q92833); sequence looked up); target or system = SUZ12/RBBP4 SUZ12 76-545 (Homo sapiens); test = pull-down; endpoint = binding; result = binds
Molecule = B7 (Rai14 1-400); target or system = Pacsin1 (Rattus norvegicus, UniProt Q9Z0W5); test = pull-down; endpoint = binding; result = binds
Molecule = PARRSEELVAEAHNLCTLLENAIQDTVREQDQSFTALDWSWLQTE (IKBKB 701-745 K703R/K704R (Homo sapiens, UniProt O14920); sequence looked up); target or system = T1, NEMO 50-113 T50E/L55R/R75V/C76S/E78R/C95A/R106E/E110V; test = NMR titration; test system = peptide; conditions = pH 7.4, 308 K; endpoint = binding; result = binds
Molecule = ILPSDIMDFVLKNTP (KMT2A N1 helix 2844-2858 (Homo sapiens, UniProt Q03164); FITC label; sequence looked up); target or system = Crebbp KIX domain 586-672 (Mus musculus, UniProt P45481); test = fluorescence polarisation; test system = peptide; endpoint = binding; result = binds
Molecule = B8 (NUP60 200-318); target or system = NUP85 (Saccharomyces cerevisiae, UniProt P46673); test = cross-linking; endpoint = binding; result = binds
Molecule = PPEF1 (Homo sapiens, UniProt O14829); target or system = FGB (Homo sapiens, UniProt P02675); test = cross-linking MS; conditions = together with: DSSO; endpoint = cross-linked residues; result = K439 to K374
Molecule = ARTKQTARKSTGGKAY (histone H3 residues 1-15; K9me3); target or system = ATRX 1-321 (Homo sapiens, UniProt P46100); test = ITC; test system = peptide; conditions = 25 °C; endpoint = binding; result = binds
Molecule = B9 (CCDC32 L78A/L81A/K83A/K84A); target or system = AP-2 core (Mus musculus); test = pull-down; test system = liposomes; endpoint = binding; result = binds
Molecule = mecA (Bacillus subtilis, UniProt P37958); target or system = clpC E280A/E618A (Bacillus subtilis, UniProt P37571); test = SEC; conditions = together with: ATP; endpoint = binding; result = binds
Molecule = B10 (ND4 1-486); target or system = ND5 1-655 (Yarrowia lipolytica, UniProt Q9B6D3); test = cryo-EM; endpoint = binding; result = binds
Molecule = B11 (PduA 2-94); target or system = PduD (Salmonella enterica, UniProt O31041); test = cross-linking; endpoint = binding; result = binds
Molecule = B12 (AGRN 1329-2068 N1993R); target or system = LRP4 21-1350 (Homo sapiens, UniProt O75096); test = mass photometry; conditions = mutant, together with: CaCl2; endpoint = binding; result = binds
Molecule = colistin; target or system = Enterobacter cloacae; test = broth microdilution; test system = clinical isolate RKI-No_215/15; endpoint = MIC; result = ≤ 0.5 µg/mL

For quick reference, copied from above:
Molecule = B3 (MED15 residues 7-659); target or system = Gcn4 fragment C262S (Saccharomyces cerevisiae); test = fluorescence polarisation; endpoint = binding; result = binds
Molecule = B4; target or system = Fem1b N26E (Mus musculus, UniProt Q9Z2G0); test = fluorescence polarisation; endpoint = binding; result = binds
